{"data": "Results from different studies", "note": "Every numbered part comes from another study and shows a few of its results, in no order. Changes are numbered by the printed parent chain."}
{"data": "Set 1", "target": "CCNB1, cyclin fold, Cln2 fusion (human)", "technique": "yeast growth competition, sequencing", "sample": "yeast", "setting": "strong parent motif", "relative to": "not given", "direction": "higher = stronger binding", "starting sequence": "PKN2 docking peptide (human); VSAVRKLDFSDTM"}
{"Variant": "VSAVRKLYFSDTM [D8Y]", "normalised enrichment score": 2.83}
{"Variant": "VSAVRKLDISDTM [F9I]", "normalised enrichment score": 0.585}
{"Variant": "VGAVRKLDFSDTM [S2G]", "normalised enrichment score": 4.02}
{"Variant": "VSLVRKLDFSDTM [A3L]", "normalised enrichment score": 4.13}
{"Variant": "VSAVVKLDFSDTM [R5V]", "normalised enrichment score": 1.59}
{"Variant": "VLAVRKLDFSDTM [S2L]", "normalised enrichment score": 3.19}
{"Variant": "VSAVRKLRFSDTM [D8R]", "normalised enrichment score": 1.15}
{"Variant": "VSAVRKLPFSDTM [D8P]", "normalised enrichment score": 0.846}
{"Variant": "VSAVRKLDFSDSM [T12S]", "normalised enrichment score": 4.01}
{"Variant": "VSAVRKLEFSDTM [D8E]", "normalised enrichment score": 3.43}
{"Variant": "VSAVRHLDFSDTM [K6H]", "normalised enrichment score": 2.51}
{"Variant": "VSAVWKLDFSDTM [R5W]", "normalised enrichment score": 0.326}
{"Variant": "VSAVRILDFSDTM [K6I]", "normalised enrichment score": 1.62}
{"Variant": "VSAVRKWDFSDTM [L7W]", "normalised enrichment score": -0.0235}
{"Variant": "VSANRKLDFSDTM [V4N]", "normalised enrichment score": 1.44}
{"Variant": "VSAVNKLDFSDTM [R5N]", "normalised enrichment score": 0.208}
{"Variant": "VSAVRKLDFSDLM [T12L]", "normalised enrichment score": 3.22}
{"Variant": "VSAVRKLHFSDTM [D8H]", "normalised enrichment score": 2.69}
{"Variant": "VSAVRKLDASDTM [F9A]", "normalised enrichment score": -0.205}
{"Variant": "VMAVRKLDFSDTM [S2M]", "normalised enrichment score": 2.87}
{"Variant": "VEAVRKLDFSDTM [S2E]", "normalised enrichment score": 3.48}
{"Variant": "VSAVRKLDFADTM [S10A]", "normalised enrichment score": 3.52}
{"Variant": "VSAQRKLDFSDTM [V4Q]", "normalised enrichment score": 1.38}
{"Variant": "VSAVRKLDFTDTM [S10T]", "normalised enrichment score": 3.97}
{"Variant": "VSAVRELDFSDTM [K6E]", "normalised enrichment score": 1.86}
{"data": "Set 2", "target": "Ras GTPase-activating protein-binding protein 1, full length (G3BP1, Homo sapiens, UniProt Q13283)", "technique": "RNA Bind-n-Seq", "molecule type": "RNA", "sample": "in vitro", "concentration": "200 nM", "setting": "whole 134-nt RNA, ends assumed", "added": "150 mM KCl", "relative to": "input library", "direction": "higher = stronger binding", "all sequences stand within": "GGGAGUUCUACAGUCCGACGAUC … UGGAAUUCUCGGGUGUCAAGG", "sequence of UniProt Q13283 (whole entry, looked up)": "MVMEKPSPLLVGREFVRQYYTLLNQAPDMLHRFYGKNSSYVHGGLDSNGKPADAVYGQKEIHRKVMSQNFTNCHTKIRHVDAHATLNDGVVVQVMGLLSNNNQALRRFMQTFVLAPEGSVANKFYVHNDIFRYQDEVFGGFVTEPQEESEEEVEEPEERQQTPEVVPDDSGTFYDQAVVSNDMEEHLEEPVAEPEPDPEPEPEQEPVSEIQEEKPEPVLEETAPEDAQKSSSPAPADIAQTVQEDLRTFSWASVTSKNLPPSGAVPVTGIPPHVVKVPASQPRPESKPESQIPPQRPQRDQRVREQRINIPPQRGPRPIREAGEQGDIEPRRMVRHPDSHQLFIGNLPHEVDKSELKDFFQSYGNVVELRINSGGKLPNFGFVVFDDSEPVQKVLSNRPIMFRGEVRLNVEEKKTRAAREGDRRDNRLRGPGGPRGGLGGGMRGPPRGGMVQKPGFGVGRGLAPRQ"}
{"Strand": "CCUGUGCUACACAUCGUAUGUACCGAAUCGGGGAAAGGGGAAAAAAAGGGGUUUUUGGGGAAAGUAUUAUGUUACGCCGUUCGGAUCUGC", "log2 enrichment": 0.344}
{"Strand": "UGGCCCUGGUGGCAUGCGGGGAGCAAGAGGUGGCCUCAUGGAUCGUGGUGGUCCCGGUGGAAUGUUCAGAGGUGGCCGUGGUGGAGACAG", "log2 enrichment": 0.172}
{"Strand": "UCAAGUCCUGUGCUACACAUCGUAUGUACCGAAUCGGUUUUUGGUUUGGAAAGGAAAGUAUUAUGUUACGCCGUUCGGAUCUGCACUUCC", "log2 enrichment": -1.19}
{"Strand": "CCUCAAGUCCUGUGCUACACAUCGUAUGUACCGAAUCGGGGUGGUGGGGUGGAAAGUAUUAUGUUACGCCGUUCGGAUCUGCACUUCCAG", "log2 enrichment": 0.566}
{"Strand": "ACCAUGCAGGUGGGCAUCUUUGGGAAGUGGGGCAAGGGGGGGAUAGGGAGGGGGGUAACACUUUGGGAACAGGUGGUCCCGGGUCGUUUC", "log2 enrichment": 1.36}
{"Strand": "CUCAAGUCCUGUGCUACACAUCGUAUGUACCGAAUCGGGGAGGGAGGGAGGGGAAAGUAUUAUGUUACGCCGUUCGGAUCUGCACUUCCA", "log2 enrichment": 1.64}
{"Strand": "UCAAGUCCUGUGCUACACAUCGUAUGUACCGAAUCGGGAAAGGGAAAGGGUGGGAAAGUAUUAUGUUACGCCGUUCGGAUCUGCACUUCC", "log2 enrichment": 1.09}
{"Strand": "AGUCCUGUGCUACACAUCGUAUGUACCGAAUCGGGAAAAAAAGGGUGGGAAAAAGGGAAAGUAUUAUGUUACGCCGUUCGGAUCUGCACU", "log2 enrichment": 0.0812}
{"Strand": "CUGUGCUACACAUCGUAUGUACCGAAUCGGGGCCCCCCCGGCCCCCCCGGGGCCCCCCCGGGAAAGUAUUAUGUUACGCCGUUCGGAUCU", "log2 enrichment": -1.09}
{"data": "Set 3", "target": "ABI1, truncated, D143A, DHFR fusion (Arabidopsis thaliana)", "technique": "DHFR PCA, deep sequencing", "sample": "yeast", "setting": "methotrexate growth selection, single substitutions", "added": "(+)-ABA 0.032 µM", "relative to": "wild-type fitted maximum", "direction": "higher = stronger binding", "starting sequence": "PYL1, truncated, DHFR fusion (Arabidopsis thaliana); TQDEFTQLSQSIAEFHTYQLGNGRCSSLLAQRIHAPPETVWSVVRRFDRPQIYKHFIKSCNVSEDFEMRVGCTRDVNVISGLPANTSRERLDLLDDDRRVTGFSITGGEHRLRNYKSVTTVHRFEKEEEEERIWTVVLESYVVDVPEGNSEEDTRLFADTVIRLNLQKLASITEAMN; partner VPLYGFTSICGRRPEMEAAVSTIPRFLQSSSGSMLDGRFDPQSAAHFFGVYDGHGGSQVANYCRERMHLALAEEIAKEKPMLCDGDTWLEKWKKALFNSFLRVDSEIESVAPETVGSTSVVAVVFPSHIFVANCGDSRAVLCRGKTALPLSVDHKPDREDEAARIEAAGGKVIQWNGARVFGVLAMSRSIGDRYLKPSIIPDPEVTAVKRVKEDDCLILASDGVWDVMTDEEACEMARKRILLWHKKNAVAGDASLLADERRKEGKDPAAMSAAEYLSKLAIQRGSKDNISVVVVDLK"}
{"Variant": "N149L", "relative binding score [%]": 22}
{"Variant": "D75W", "relative binding score [%]": 17.3}
{"Variant": "L20K", "relative binding score [%]": 37.9}
{"Variant": "G23R", "relative binding score [%]": 18.2}
{"Variant": "T119W", "relative binding score [%]": -1.23}
{"Variant": "K58T", "relative binding score [%]": -1.01}
{"Variant": "L156I", "relative binding score [%]": 7.88}
{"Variant": "L93P", "relative binding score [%]": 1.38}
{"Variant": "N77M", "relative binding score [%]": 38}
{"Variant": "D153S", "relative binding score [%]": -2.31}
{"Variant": "F157I", "relative binding score [%]": -1.17}
{"Variant": "E64L", "relative binding score [%]": 2.09}
{"Variant": "A13G", "relative binding score [%]": 7.85}
{"data": "Set 4", "target": "RING finger protein unkempt homolog, zinc fingers 1-6, GST-SBP tag (UNK, Homo sapiens, UniProt Q9C0B0, residues 30-357)", "technique": "RNA Bind-n-Seq", "molecule type": "RNA", "sample": "in vitro", "concentration": "not given", "setting": "RNA with constant flanks, human and mouse sites, ends assumed", "relative to": "input RNA pool", "direction": "higher = stronger binding", "all sequences stand within": "GGGAGUUCUACAGUCCGACGAUC … CAACAGAGGAUUGAGCAUCA", "Residues (chain)": "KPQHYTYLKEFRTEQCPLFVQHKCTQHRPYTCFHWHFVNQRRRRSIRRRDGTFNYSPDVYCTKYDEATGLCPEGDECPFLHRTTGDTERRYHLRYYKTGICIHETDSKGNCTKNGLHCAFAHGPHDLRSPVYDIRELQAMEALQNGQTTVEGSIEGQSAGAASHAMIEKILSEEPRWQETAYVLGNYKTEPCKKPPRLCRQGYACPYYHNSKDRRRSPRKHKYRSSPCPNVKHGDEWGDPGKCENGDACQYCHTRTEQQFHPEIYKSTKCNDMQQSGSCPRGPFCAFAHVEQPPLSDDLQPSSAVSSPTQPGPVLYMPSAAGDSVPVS"}
{"Strand": "UUCACCAAAAAAGACUCAGUUCCACCCAGCCACAAGAGGAUAAAAAGCCUUUUUAAACGCAGUAUUGCUGUAAACUGGACAGAACCAUUAAGAACCUAUUGAGUGGACAUUCUUGGUGAA", "bound/input enrichment": "0.098 ratio"}
{"Strand": "CCGUGGCGCUCCAACUUCCUUCCCUGCCUUUUCCCUCCAAGCUCCUAUUUUACUGUGUCAGCUGGAAGGAAACCUUUCCCUCUUGGGACCUCUUUACCCUCUGUGACCUGUGGGGUUAGA", "bound/input enrichment": "0.46 ratio"}
{"Strand": "UACCAGUCAUAUAAUCAGUAUCCUAAUGGGUCAGCCAAUGGCUUUGGUGCAGUUAGAAACUUUAGCCCCACUGACUAUUAUCAUUCAGAAAUUCCAAACACAAGACCACAUGAAAUUCUG", "bound/input enrichment": "0.42 ratio"}
{"Strand": "AGCUCUGCAGGAUCCUCCUUUGUAUUUGGAACUGGACCCUCAGCACCAUCUGCCAGUCCAGCAUUUGGUGCUAACCAGACCCCAACAUUUGGACAAAGUCAAGGUGCCAGCCAGCCCAAU", "bound/input enrichment": "0.099 ratio"}
{"Strand": "UGUGUCAUCCGAUGCUUAGUAAAGAAAAGAGCUCUUAUUGCAGGAGGUGGUGCUCCAGAAAUAGAGCUGGCCCUCAGACUGACAGAGUACUCCCGAACACUGAGUGGUAUGGAGUCCUAC", "bound/input enrichment": "0.145 ratio"}
{"Strand": "UAUUUGAUGCGAGGUCCAUGUCUUCCAUACACCAGCAAACUUGUGAAGACCUUAUUAUAUAACUUUAUCAGACAAGAAAAGCCACCUCCUCCAGGGGCCCAUGUUUUCCCUCAGCAGUCG", "bound/input enrichment": "0.688 ratio"}
{"Strand": "CGGCUGCAGGGUCCUUGUGCUGCGCUGGUUCUUUGAAAGUCUCAGUGUUGAUAUUGAACUUAAAGAGCAGAGAUGGAGAUCAGUAGCAAGGCAGUCAUUUUUUUAAAGCAGUAAGUAACA", "bound/input enrichment": "0.285 ratio"}
{"Strand": "GAAAAACUCACAAUCUCAGAAGAGACUCUGGCCAAUAAUACUUGGUCUUUAAUGUUAAAAGAAGUUCUUUCUUCAAUCUUGAAGGUUCCUGAAGGAUUUUUUUCUGGACUCAUACUCCUU", "bound/input enrichment": "0.122 ratio"}
{"note": "A few entries again (set 3):"}
{"Variant": "K58T", "relative binding score [%]": -1.01}
{"Variant": "L156I", "relative binding score [%]": 7.88}
{"Variant": "L93P", "relative binding score [%]": 1.38}
{"Variant": "N77M", "relative binding score [%]": 38}
{"Variant": "D153S", "relative binding score [%]": -2.31}
{"Variant": "F157I", "relative binding score [%]": -1.17}
{"Variant": "E64L", "relative binding score [%]": 2.09}
